Assay results collected from several papers.
Parts stem from different laboratories: compare values within a part only. Substitutions count along the parent as printed.
Sequence of UniProt Q01959 (whole entry, looked up): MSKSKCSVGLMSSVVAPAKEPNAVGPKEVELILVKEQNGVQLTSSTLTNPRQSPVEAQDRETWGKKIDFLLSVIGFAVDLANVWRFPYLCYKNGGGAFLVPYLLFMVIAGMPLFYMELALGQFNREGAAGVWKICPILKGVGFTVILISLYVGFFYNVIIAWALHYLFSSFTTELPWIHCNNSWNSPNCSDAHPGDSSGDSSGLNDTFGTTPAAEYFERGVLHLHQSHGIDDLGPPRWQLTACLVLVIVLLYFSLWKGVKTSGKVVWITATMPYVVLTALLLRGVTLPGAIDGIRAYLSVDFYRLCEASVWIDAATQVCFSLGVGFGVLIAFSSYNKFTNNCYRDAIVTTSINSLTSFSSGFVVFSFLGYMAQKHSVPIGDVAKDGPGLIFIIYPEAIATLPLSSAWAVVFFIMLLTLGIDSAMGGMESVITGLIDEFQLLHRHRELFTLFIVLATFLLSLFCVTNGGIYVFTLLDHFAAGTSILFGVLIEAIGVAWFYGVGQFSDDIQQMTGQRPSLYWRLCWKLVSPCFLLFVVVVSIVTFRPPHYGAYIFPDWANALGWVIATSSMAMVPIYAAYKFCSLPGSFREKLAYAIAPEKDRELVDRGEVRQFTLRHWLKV

Block 1
Target: tungstate, free oxyanion
Method: microfluidic competitive inhibition
Matrix: in vitro, cell-free expressed
Concentration: not given
Setting: derived from inhibition constants, unchanged parent 2230 nM
Reading: lower = stronger binding
Starting sequence: PafA, mature enzyme, eGFP fusion (Elizabethkingia meningoseptica, UniProt Q9KJX5); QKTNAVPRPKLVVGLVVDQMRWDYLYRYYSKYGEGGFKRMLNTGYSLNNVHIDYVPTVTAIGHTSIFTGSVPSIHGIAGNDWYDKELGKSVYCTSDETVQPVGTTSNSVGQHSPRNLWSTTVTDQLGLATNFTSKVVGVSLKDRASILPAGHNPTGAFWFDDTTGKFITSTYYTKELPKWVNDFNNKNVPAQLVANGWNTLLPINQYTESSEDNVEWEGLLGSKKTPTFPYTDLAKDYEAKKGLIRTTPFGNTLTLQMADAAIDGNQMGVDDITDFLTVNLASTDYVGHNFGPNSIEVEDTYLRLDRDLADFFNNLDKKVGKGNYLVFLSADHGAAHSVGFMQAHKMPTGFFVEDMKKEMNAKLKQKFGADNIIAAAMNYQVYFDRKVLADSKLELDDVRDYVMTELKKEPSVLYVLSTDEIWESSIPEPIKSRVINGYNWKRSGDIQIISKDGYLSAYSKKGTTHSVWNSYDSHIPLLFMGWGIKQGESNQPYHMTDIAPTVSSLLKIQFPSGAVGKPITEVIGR
Change | oxyanion analog dissociation constant
K518V | 2.25 µM
D285G | < 92.4 nM
S113G | 1.55 µM
N49V | 1.71 µM
F276G | 1.03 µM
N280V | 169 µM
V189A | 2.57 µM
I374V | 2.37 µM

Block 2
Target: CCNB1, cyclin fold, Cln2 fusion (human)
Method: yeast growth competition, sequencing
Matrix: yeast
Setting: strong parent motif
Relative to: not given
Reading: higher = stronger binding
Starting sequence: viral docking peptide; KGVKRKLFAEDSS
Change | normalised enrichment score
KGVKMKLFAEDSS [R5M] | 1.16
KGVKRKLFAEMSS [D11M] | 0.874
KGVKRKLFAEDGS [S12G] | 1.88
KGVKRKHFAEDSS [L7H] | 0.472
KGVKRKLFASDSS [E10S] | 1.03
KGSKRKLFAEDSS [V3S] | 0.00887
KGVKRKLFCEDSS [A9C] | 2.3
KGVKRILFAEDSS [K6I] | 0.774

Further values, each from its own experiment
SMILES | target or system | assay | setting | measurement | result
COc1cc(-c2cn(C3CCc4c(F)cccc4N(CC(F)(F)F)C3=O)nn2)ccc1-n1cnc(C)c1 (stereo not drawn) | Sodium-dependent dopamine transporter (SLC6A3, Homo sapiens, UniProt Q01959) | ligand displacement | 10 µM | inhibition | 99.7%
Cl.OC(CCN1CCCCC1)(c1ccccc1)C1CCCCC1 (racemic) | Vesicular stomatitis virus | pseudovirus infection | concentration not given, VSV-G control pseudotype | GFP signal | 109%

For quick reference, copied from above (block 1):
Change | oxyanion analog dissociation constant
N280V | 169 µM
